Assay results gathered from unrelated publications.
Each line is one published result; not all experiments were run side by side.
Organism: Pseudomonas aeruginosa

Compound | assay | system | setting | MIC
CC[C@H](C)[C@H](NC(=O)[C@@H](CCCNC(=N)N)NC(=O)[C@H](CCCNC(=N)N)NC(=O)[C@@H]1CCCN1C(=O)[C@@H]1CCCN1C(=O)[C@H](CCCNC(=N)N)NC(=O)[C@@H]1CCCN1C(=O)[C@H](CCCNC(=N)N)NC(=O)[C@@H]1CCCN1C(=O)[C@H](CC(C)C)NC(=O)[C@H](Cc1ccc(O)cc1)NC(=O)[C@@H]1CCCN1C(=O)[C@@H]1CCCN1C(=O)[C@H](CCCCN)NC(=O)[C@H](CC(=O)O)NC(=O)[C@@H](N)C(C)C)C(=O)N[C@@H](Cc1cc(I)c(O)c(I)c1)C(=O)N[C@@H](CC(N)=O)C(=O)N[C@H](CCCNC(=N)N)C(N)=O | broth microdilution | DSM 1117 | 18 h, 37 °C, 25% MHB2 | > 128 µg/mL
CCCCCCCC(=O)N[C@@H](CCN)C(=O)N[C@H](C(=O)N[C@@H](CCN)C(=O)N[C@H]1CCNC(=O)[C@H]([C@@H](C)O)NC(=O)[C@H](CCN)NC(=O)[C@H](CCN)NC(=O)[C@H](Cc2ccccc2)NC(=O)[C@@H](CCCCCC)NC(=O)[C@H](CCN)NC1=O)[C@@H](C)O | broth microdilution | colistin-resistant isolates | – | 0.25 to 0.5 µg/mL
C#CCOc1ccc(CN[C@@]2(C)C[C@H](O[C@H]3[C@H](Oc4c5cc6cc4Oc4ccc(cc4Cl)[C@@H](O)[C@@H](NC(=O)[C@@H](CC(C)C)NC)C(=O)N[C@@H](CC(N)=O)C(=O)N[C@H]6C(=O)N[C@H]4C(=O)N[C@H](C(=O)N[C@H](C(=O)NCC(N)=O)c6cc(O)cc(O)c6-c6cc4ccc6O)[C@H](O)c4ccc(c(Cl)c4)O5)O[C@H](CO)[C@@H](O)[C@@H]3O)O[C@@H](C)[C@H]2O)cc1OC | broth microdilution | ATCC 17978, cation-adjusted Mueller-Hinton broth | – | 76 µM
CCCCCCCC(=O)N[C@@H](CCN)C(=O)N[C@H](C(=O)N[C@@H](CCN)C(=O)N[C@H]1CCNC(=O)[C@H]([C@@H](C)O)NC(=O)[C@H](CCN)NC(=O)[C@H](CCN)NC(=O)[C@H](Cc2ccc(F)cc2)NC(=O)[C@@H](CC(C)C)NC(=O)[C@H](CCN)NC1=O)[C@@H](C)O | broth microdilution | PAO1, colistin-susceptible | – | 0.125 to 0.25 µg/mL
CC(C)C[C@@H]1NC(=O)[C@H](CCCCN)NC(=O)CNC(=O)[C@H]2CCCN2C(=O)[C@H](CCCCN)NC(=O)[C@H](CC(C)C)NC(=O)[C@H](CCCCN)NC(=O)C2CCC=CCCC(NC(=O)[C@H](CCCCN)NC1=O)C(=O)N[C@@H](CCCCN)C(=O)NC(C(N)=O)CCC=CCCC(N)C(=O)N[C@@H](CCCCN)C(=O)N2 (stereo partly drawn) | broth microdilution | ATCC 9027, Mueller-Hinton broth | 18 h, 37 °C | 32 µM
CC[C@H](C)[C@H](NC(=O)[C@@H](CCCNC(=N)N)NC(=O)[C@H](CCCNC(=N)N)NC(=O)[C@@H](NC(=O)[C@H](Cc1c[nH]c2ccccc12)NC(=O)[C@H](CCCNC(=N)N)NC(=O)[C@@H]1CCCN1C(=O)[C@H](CCCNC(=N)N)NC(=O)[C@@H]1CCCN1C(=O)[C@H](CC(C)C)NC(=O)[C@H](Cc1ccc(O)cc1)NC(=O)[C@@H]1CCCN1C(=O)[C@@H]1CCCN1C(=O)[C@H](CCCCN)NC(=O)[C@H](CC(=O)O)NC(=O)[C@@H](N)C(C)C)[C@@H](C)O)C(=O)N[C@@H](Cc1ccc(O)cc1)C(=O)N[C@@H](CC(N)=O)C(=O)N[C@H](CCCNC(=N)N)C(N)=O | broth microdilution | DSM 1117 | 18 h, 37 °C, 25% MHB2 | > 128 µg/mL
CN[C@H](CC(C)C)C(=O)N[C@H]1C(=O)N[C@@H](CC(N)=O)C(=O)N[C@H]2C(=O)N[C@H]3C(=O)N[C@H](C(=O)N[C@H](C(=O)O)c4cc(O)cc(O)c4-c4cc3ccc4O)[C@H](O)c3ccc(c(Cl)c3)Oc3cc2cc(c3O[C@@H]2O[C@H](CO)[C@@H](O)[C@H](O)[C@H]2O[C@H]2C[C@](C)(NCc3ccc(OCc4cn(CC(=O)N[C@H](C(=O)N[C@@H](CCN)C(=O)N[C@H]5CCNC(=O)[C@H]([C@@H](C)O)NC(=O)[C@H](CCN)NC(=O)[C@H](CCN)NC(=O)[C@H](CC(C)C)NC(=O)[C@@H](CC(C)C)NC(=O)[C@H](CCN)NC5=O)[C@@H](C)O)nn4)c(OC)c3)[C@H](O)[C@H](C)O2)Oc2ccc(cc2Cl)[C@H]1O | broth microdilution | ATCC 35218, cation-adjusted Mueller-Hinton broth | – | 6 µM
CC[C@H](C)[C@H](NC(=O)[C@H](CCCNC(=N)N)NC(=O)[C@@H](NC(=O)[C@@H](NC(=O)[C@H](CCCNC(=N)N)NC(=O)[C@H](CCCCN)NC(=O)[C@H](Cc1ccccc1)NC(=O)[C@H](CCCNC(=N)N)NC(=O)[C@H](CCCCN)NC(=O)[C@@H](NC(=O)[C@@H](N)CCCCN)[C@@H](C)CC)[C@@H](C)CC)C(C)C)C(=O)N[C@@H](CCCCN)C(=O)N[C@@H](Cc1ccccc1)C(=O)N[C@@H](CC(C)C)C(=O)N[C@@H](CCCNC(=N)N)C(=O)N[C@H](C(=O)N[C@H](C(=O)N[C@@H](CCCNC(=N)N)C(=O)N[C@@H](CCCNC(=N)N)C(N)=O)C(C)C)C(C)C | broth microdilution | 01 | – | 7.5 µg/mL
CC[C@H](C)[C@H](NC(=O)[C@H](C)NC(=O)[C@@H](NC(=O)[C@H](CC(=O)O)NC(=O)[C@H](CCCCN)NC(=O)[C@H](CO)NC(=O)[C@@H](NC(=O)[C@H](CC(N)=O)NC(=O)[C@H](C)NC(=O)[C@@H](NC(=O)[C@H](CCC(=O)O)NC(=O)[C@H](CCCCN)NC(=O)[C@@H](NC(=O)[C@@H](NC(=O)[C@H](Cc1c[nH]cn1)NC(=O)[C@H](CCCCN)NC(=O)[C@@H](NC(=O)[C@H](CCCCN)NC(=O)[C@H](CCCCN)NC(=O)[C@@H](NC(=O)[C@H](CC(C)C)NC(=O)[C@H](CCCCN)NC(=O)[C@H](CC(N)=O)NC(=O)[C@H](Cc1ccccc1)NC(=O)[C@H](CCCNC(=N)N)NC(=O)[C@H](CCCCN)NC(=O)[C@H](CCCNC(=N)N)NC(=O)[C@H](Cc1ccccc1)NC(=O)CN)C(C)C)C(C)C)[C@@H](C)O)[C@@H](C)CC)[C@@H](C)O)C(C)C)C(C)C)C(=O)N[C@H](C(=O)N[C@@H](C)C(=O)NCC(=O)N[C@@H](CO)C(=O)NCC(=O)N[C@H](C(=O)N[C@@H](C)C(=O)N[C@H](C(=O)NCC(=O)N[C@@H](C)C(=O)N[C@@H](C)C(=O)N[C@@H](CCSC)C(N)=O)C(C)C)C(C)C)C(C)C | – | ATCC 27853, CAMHB with 10% mouse serum | – | 16 µg/mL
CN[C@H](CC(C)C)C(=O)N[C@H]1C(=O)N[C@@H](CC(N)=O)C(=O)N[C@H]2C(=O)N[C@H]3C(=O)N[C@H](C(=O)N[C@H](C(=O)O)c4cc(O)cc(O)c4-c4cc3ccc4O)[C@H](O)c3ccc(c(Cl)c3)Oc3cc2cc(c3O[C@@H]2O[C@H](CO)[C@@H](O)[C@H](O)[C@H]2O[C@H]2C[C@](C)(NCc3ccc(OCc4cn(CCCCC(=O)N[C@H](C(=O)N[C@@H](CCN)C(=O)N[C@H]5CCNC(=O)[C@H]([C@@H](C)O)NC(=O)[C@H](CCN)NC(=O)[C@H](CCN)NC(=O)[C@H](CC(C)C)NC(=O)[C@@H](CC(C)C)NC(=O)[C@H](CCN)NC5=O)[C@@H](C)O)nn4)c(OC)c3)[C@H](O)[C@H](C)O2)Oc2ccc(cc2Cl)[C@H]1O | broth microdilution | ATCC 10145, cation-adjusted Mueller-Hinton broth | – | 24 µM
CCn1c(-c2ccc(OC)cc2)c(-c2ccc(OC)cc2)n(CC)c1=[Se] | broth microdilution | carbapenem-resistant BAA-2108 | 24 h | > 40 µM
CN[C@H](CC(C)C)C(=O)N[C@H]1C(=O)N[C@@H](CC(N)=O)C(=O)N[C@H]2C(=O)N[C@H]3C(=O)N[C@H](C(=O)N[C@H](C(=O)NCC(N)=O)c4cc(O)cc(O)c4-c4cc3ccc4O)[C@H](O)c3ccc(c(Cl)c3)Oc3cc2cc(c3O[C@@H]2O[C@H](CO)[C@@H](O)[C@H](O)[C@H]2O[C@H]2C[C@](C)(NCc3ccc(OCc4cn(CC(=O)N[C@H](C(=O)N[C@@H](CCN)C(=O)N[C@H]5CCNC(=O)[C@H]([C@@H](C)O)NC(=O)[C@H](CCN)NC(=O)[C@H](CCN)NC(=O)[C@H](CC(C)C)NC(=O)[C@@H](CC(C)C)NC(=O)[C@H](CCN)NC5=O)[C@@H](C)O)nn4)c(OC)c3)[C@H](O)[C@H](C)O2)Oc2ccc(cc2Cl)[C@H]1O | broth microdilution | ATCC 10145, cation-adjusted Mueller-Hinton broth | – | 12 µM
CC[C@H](C)[C@H](NC(=O)[C@@H](CCCNC(=N)N)NC(=O)[C@H](CCCNC(=N)N)NC(=O)[C@@H]1CCCN1C(=O)[C@@H]1CCCN1C(=O)[C@H](CCCNC(=N)N)NC(=O)[C@@H]1CCCN1C(=O)[C@H](CCCNC(=N)N)NC(=O)[C@@H]1CCCN1C(=O)[C@H](CC(C)C)NC(=O)[C@H](Cc1ccc(O)cc1)NC(=O)[C@H](Cc1ccc(O)cc1)NC(=O)[C@@H]1CCCN1C(=O)[C@H](CCCCN)NC(=O)[C@H](CC(=O)O)NC(=O)[C@@H](N)C(C)C)C(=O)N[C@@H](Cc1ccc(O)cc1)C(=O)N[C@@H](CC(N)=O)C(=O)N[C@H](CCCNC(=N)N)C(N)=O | broth microdilution | DSM 1117 | 18 h, 37 °C, 25% MHB2 | 128 µg/mL
CN[C@H](CC(C)C)C(=O)N[C@H]1C(=O)N[C@@H](CC(N)=O)C(=O)N[C@H]2C(=O)N[C@H]3C(=O)N[C@H](C(=O)N[C@H](C(=O)NCc4cn(CCCCC(=O)N[C@H](C(=O)N[C@@H](CCN)C(=O)N[C@H]5CCNC(=O)[C@H]([C@@H](C)O)NC(=O)[C@H](CCN)NC(=O)[C@H](CCN)NC(=O)[C@H](CC(C)C)NC(=O)[C@@H](CC(C)C)NC(=O)[C@H](CCN)NC5=O)[C@@H](C)O)nn4)c4cc(O)cc(O)c4-c4cc3ccc4O)[C@H](O)c3ccc(c(Cl)c3)Oc3cc2cc(c3O[C@@H]2O[C@H](CO)[C@@H](O)[C@H](O)[C@H]2O[C@H]2C[C@](C)(N)[C@H](O)[C@H](C)O2)Oc2ccc(cc2Cl)[C@H]1O | broth microdilution | ATCC 27853, cation-adjusted Mueller-Hinton broth | – | 13 µM
CN[C@@H]1[C@H](O)[C@H](NC)[C@H]2O[C@]3(O)[C@H](O[C@@H]2[C@H]1O)O[C@H](C)C[C@H]3NC(=O)Cc1ccc(F)cn1 | microbial growth, broth dilution | PAO1 | – | > 200 µg/mL

Excerpt of the above:
Compound | assay | system | setting | MIC
CCCCCCCC(=O)N[C@@H](CCN)C(=O)N[C@H](C(=O)N[C@@H](CCN)C(=O)N[C@H]1CCNC(=O)[C@H]([C@@H](C)O)NC(=O)[C@H](CCN)NC(=O)[C@H](CCN)NC(=O)[C@H](Cc2ccccc2)NC(=O)[C@@H](CCCCCC)NC(=O)[C@H](CCN)NC1=O)[C@@H](C)O | broth microdilution | colistin-resistant isolates | – | 0.25 to 0.5 µg/mL
